Results from different studies.
A part holds a random share of what one study measured.

Sample 1
Target: Sal-like protein 4, full length isoform B (SALL4, Homo sapiens, UniProt Q9UJQ4-2, residues 1-616)
Technique: universal PBM
Molecule type: double-stranded DNA, one strand shown
Sample: in vitro
Concentration: not given
Setting: 8-mer, flanks averaged, mean of replicates
Reading: higher = stronger binding
Measurement: E-score
Sequence = AGTAGTTA; result = 0.158
Sequence = TAATCAAA; result = 0.3
Sequence = ACCCCGCC; result = -0.178
Sequence = CCCCAAGA; result = -0.118
Sequence = CACCTACG; result = -0.169
Sequence = CTATTGAC; result = 0.0662
Sequence = CGCCACCA; result = -0.166
Sequence = GTTGTTCA; result = 0.00433
Sequence = CAAATTAC; result = 0.143
Sequence = AAGAAAGA; result = 0.107
Sequence = ATGTCTCA; result = 0.132
Sequence = ACTAAGCG; result = -0.235
Sequence = TAAGACTA; result = 0.161
Sequence = AGTCAAAA; result = 0.095
Sequence = ACTCGAAA; result = 0.00801
Sequence = ATCCACAC; result = -0.161
Sequence = GCCAATCC; result = -0.133
Sequence = CAGTCCAA; result = -0.123

Sample 2
Target: Ras GTPase-activating protein-binding protein 1, C-terminal RGG region (G3BP1, Homo sapiens, UniProt Q13283)
UniProt Q13283, sequence (whole entry, looked up): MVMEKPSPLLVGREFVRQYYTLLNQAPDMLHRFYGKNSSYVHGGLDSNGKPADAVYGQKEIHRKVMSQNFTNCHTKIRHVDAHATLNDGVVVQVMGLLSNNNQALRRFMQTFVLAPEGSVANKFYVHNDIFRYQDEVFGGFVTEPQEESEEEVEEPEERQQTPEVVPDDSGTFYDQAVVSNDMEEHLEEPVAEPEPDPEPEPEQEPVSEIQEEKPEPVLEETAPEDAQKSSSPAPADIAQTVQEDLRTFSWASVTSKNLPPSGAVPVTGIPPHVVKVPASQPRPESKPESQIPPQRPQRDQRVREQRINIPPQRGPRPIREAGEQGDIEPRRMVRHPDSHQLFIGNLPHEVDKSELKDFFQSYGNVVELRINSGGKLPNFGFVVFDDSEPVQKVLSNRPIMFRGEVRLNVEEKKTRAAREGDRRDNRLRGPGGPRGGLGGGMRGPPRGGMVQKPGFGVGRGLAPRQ
Technique: RNA Bind-n-Seq
Molecule type: RNA
Sample: in vitro
Concentration: 1 µM
Setting: whole 134-nt RNA, ends assumed
With: 150 mM KCl
Baseline: input library
Reading: higher = stronger binding
Measurement: log2 enrichment
All sequences stand within: GGGAGUUCUACAGUCCGACGAUC … UGGAAUUCUCGGGUGUCAAGG
Sequence = UCCUGUGCUACACAUCGUAUGUACCGAAUCGGGGAAAAAGGGGAAAAAGGGAAAAAGGGGAAAGUAUUAUGUUACGCCGUUCGGAUCUGC; result = -0.26
Sequence = UCCUGUGCUACACAUCGUAUGUACCGAAUCGGAAAAAAGGGAAAAAAGGGAAAAAAGGGAAAGUAUUAUGUUACGCCGUUCGGAUCUGCA; result = -1.12
Sequence = CCUGUGCUACACAUCGUAUGUACCGAAUCGGGGUUUUUUUGGGGUUUUUUUGGGGAGGGGAAAGUAUUAUGUUACGCCGUUCGGAUCUGC; result = 0.151
Sequence = AGUCCUGUGCUACACAUCGUAUGUACCGAAUCGGGGUUUGGGGUUUUUGGGGUGGGGAAAGUAUUAUGUUACGCCGUUCGGAUCUGCACU; result = 2
Sequence = UCCUGUGCUACACAUCGUAUGUACCGAAUCGGGAAAAAAAGGGUUUUUUUGGGUUUGGGAAAGUAUUAUGUUACGCCGUUCGGAUCUGCA; result = -0.915
Sequence = UCAAGUCCUGUGCUACACAUCGUAUGUACCGAAUCGGGAGGGAAAGGGUUUGGGAAAGUAUUAUGUUACGCCGUUCGGAUCUGCACUUCC; result = 1.91
Sequence = AGUCCUGUGCUACACAUCGUAUGUACCGAAUCGGGGUUUUUGGGGAAAGGGGUGGGGAAAGUAUUAUGUUACGCCGUUCGGAUCUGCACU; result = 2.72
Sequence = UAUCUUUAGAGGAGGAUCUGAUGGAUAUGGCAGUGGACGUGGAUUUGGGGAUGGCUAUAAUGGGUAUGGAGGAGGACCUGGAGGUGGCAA; result = -1.5
Sequence = AGUCCUGUGCUACACAUCGUAUGUACCGAAUCGGCCCCCGGCCCCCGGCCCCCGGGGAAAGUAUUAUGUUACGCCGUUCGGAUCUGCACU; result = -1.61
Sequence = UGGCCCUGGUGGCAUGCGGGGAGGAAGAGGUGGCCUCUUGGAUCGUGGUGGUCCCGGUGGAAUGUUCAGAGGUGGCCGUGGUGGAGACAG; result = 2.21
Sequence = CUCAAGUCCUGUGCUACACAUCGUAUGUACCGAAUCGGAAAAAGGUGGAAAGGAAAGUAUUAUGUUACGCCGUUCGGAUCUGCACUUCCA; result = -1.28
Sequence = AGUCCUGUGCUACACAUCGUAUGUACCGAAUCGGUUUUUGGUUUUUGGGGUUUUUGGGAAAGUAUUAUGUUACGCCGUUCGGAUCUGCAC; result = -1.38
Sequence = UAACUUUAGAGGAGGAUCUGAUGCAUAUGGCAGUGGACGUGGAUUUGGGGAUGGCUAUAAUGGGUAUGGAGGAGGACCUGGAGGUGGCAA; result = -1.49
Sequence = CUGUGCUACACAUCGUAUGUACCGAAUCGGGGAAAAAGGGGUUUUUUUGGGGUUUUUGGGGAAAGUAUUAUGUUACGCCGUUCGGAUCUG; result = 0.211

Sample 3
Target: RNA binding protein fox-1 homolog 2, RRM domain, GST-SBP tag (RBFOX2, Homo sapiens, UniProt O43251-10, residues 100-194)
Technique: RNA Bind-n-Seq
Molecule type: RNA
Sample: in vitro
Concentration: 365 nM
Setting: natural RNA segment, single round, ends assumed
Baseline: no-protein control
Reading: higher = stronger binding
Measurement: RBNS enrichment (R)
All sequences stand within: GGGAGUUCUACAGUCCGACGAUC … UGGAAUUCUCGGGUGCCAA
Residues (chain): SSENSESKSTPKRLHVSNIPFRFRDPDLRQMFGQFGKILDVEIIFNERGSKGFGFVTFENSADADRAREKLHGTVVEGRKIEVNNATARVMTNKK
Sequence = GCCCCGCCCCUCCUGCCGGGGGAGGCCCAGGGACCGGAGCAUUUCUGCAAGGCCCUUGUGGGCACGAGAGUGCGGCCCUUGCUGCUGGAGAUCUGAGGUCACUGCUGUGA; result = 0.59
Sequence = AUUGGAACUUUUUGAAGUGUGUGGGACUAUGAGAAGAAUUUCUUACUAACAUUUCCAAUAUCUGUAAGAUACCAAAGGACUGAGACUAACUGAUCUUUUAAUGGAAUUUC; result = 0.61
Sequence = CUGGAAGGAAAGAUUCCCAGCAUGCAGUGCUCUCUCCUCCAGGGAGGAGAAUGUGUGCUGGGCUAUGGGAGCCAUGUUCAGAGAUUUGUGUGUGUGUGCCAGAGUAGCUG; result = 1.31
Sequence = GUUGUUGUUUGUUGUUCAUUUAAACAUGUAUUUAGAACUGCACUUUGUCAGAACCUUCCAGUCCCUUCUUACUCCCCGGUUAACUGAGGUUUUUACCAAUUUCUAGAGCA; result = 2.77
Sequence = UGCAGCACUGAGCCUCAAAUCCGCUCUGGAGCAUGAGGCUGGAUGCAGUGGUGGUGAGGCCGCCCCGCUCCAUCCCGAGGCAGCCAGGGUUUGUUUUGCGCUCUCCUGUC; result = 0.209
Sequence = CAUUGUGAGGCCACUGGCAUGGAUGCUAUGCACCCCACCCUUUGCUGGCCAUAUUCCUCCUGUCCCCAUGCUGUGGCUCAUGCCAACCUAGCAAUAAGGAGCUCUGGAGA; result = 0.186
Sequence = AGGGAGAACAGGUAGUAGAAAUUCAGGAUUACCAAGUGGCCACCAGUGCACACACUCCGCAGCUGUGACUCAGCCUUGUGUAGGGUCCCAAAGAAGCAAGCCUUAGAACC; result = 0.478
Sequence = AAUGCAAGAUGACUCAGAGUAUAGGUCAGGGUCAGCACUGGAUAAGGUCAUGAGGGCAGUCUCCCAGACUGCAGGCCUGAGUAAGUGUUGAGUUUUGCAUAAACACAAAC; result = 0.326
Sequence = AUGUGUGGUGUUGGCAGUCUAAUUUGCUUCUGUUAAAUGUUGUAGAACCUUUUUCACUAGGAAAUAAGAUUCAUUUCUUUCGGCAGUAGAUGUAGAUUCAUCUUUUAACG; result = 0.517
Sequence = GGUUCUGUGCUAGCUGAUGCAAGGACAUUAGCUCCAAAGGCUGGGGAGGGCUUGGCUCUCCCUCUGUGUCUUCCUGGUGUCCCGCCCUGGCCAGCUCUCGUCUGCUCUCG; result = 0.224
Sequence = AUCAGUUGUAUUCUAGUAAAGAACCUCUUUGGGGACUGUAGGAAAGCAUGUUUUUGUGGUUAUAAAAACACUUAAAAAUCCUGAUAAUUCUGGGCUUGUAUAAUGCCUGU; result = 1.43
Sequence = AUCAGAGGUGCAGGCCACCAGUUAAAUGCCGUCUAUCAGGUUUUGUGCCUUAAGAGACUACAGAGUCAAAGCUCAUUUUUAAAGGAGUAGGACAAAGUUGUCACAGGUUU; result = 0.326

Sample 4
Target: Interferon regulatory factor 7, full length, phosphomimetic (IRF7, Homo sapiens, UniProt Q92985, residues 1-503, S471D/S472D/S475D/S476D/S477D/S483D/S484D/S487D)
UniProt Q92985, sequence (whole entry, unmodified, looked up): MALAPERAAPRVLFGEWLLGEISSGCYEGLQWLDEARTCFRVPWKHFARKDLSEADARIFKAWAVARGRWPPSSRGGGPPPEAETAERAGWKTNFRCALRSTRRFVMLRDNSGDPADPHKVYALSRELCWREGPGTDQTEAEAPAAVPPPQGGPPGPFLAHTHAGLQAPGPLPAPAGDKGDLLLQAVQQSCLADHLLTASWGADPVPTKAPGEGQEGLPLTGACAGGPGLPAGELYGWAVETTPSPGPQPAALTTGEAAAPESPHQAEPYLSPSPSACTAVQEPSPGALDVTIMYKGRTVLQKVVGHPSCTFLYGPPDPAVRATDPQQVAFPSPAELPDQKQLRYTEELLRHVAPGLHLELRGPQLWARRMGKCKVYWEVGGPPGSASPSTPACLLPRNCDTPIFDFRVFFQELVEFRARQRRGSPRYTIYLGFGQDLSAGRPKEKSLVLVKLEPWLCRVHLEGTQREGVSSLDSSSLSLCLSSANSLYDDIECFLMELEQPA
Technique: protein-binding microarray
Molecule type: double-stranded DNA, one strand shown
Sample: in vitro
Concentration: 2200 nM top
Setting: 60-bp whole probe
With: salmon DNA 0.4 mg/ml
Baseline: random background probes
Reading: higher = stronger binding
Measurement: fitted relative affinity
All sequences stand within: GCCTAGCAC … GTCTTGATTCGCTTGACGCTGCTG
Sequence = GACGGTATCGCCTTTCGGGACGTGCTA; result = 1.12 z-score
Sequence = GACGGTTTCGACTTTCAGGACGTGCTA; result = 7.14 z-score
Sequence = GACGGTTTCGGTTTTGGGACGTGCTAG; result = 11 z-score
Sequence = TCAAATATATATATTGTACTGTGCTAG; result = 0.0337 z-score
Sequence = GGCGGTATCGGTTTCGGGACGTGCTAG; result = 3.37 z-score
Sequence = GACCGACTGGGGTATCGGGACGTGCTA; result = -0.498 z-score
Sequence = TGGTTTTCCTTATTGCTTCCTGTGCTA; result = 2.99 z-score
Sequence = GACGATATCAGTACCGAGACGTGCTAG; result = 0.188 z-score
Sequence = GACGAACTGGGGTTTCGAGATGTGCTA; result = 1.39 z-score
Sequence = TTAGATTTCAGACTCGATTAGTGCTAG; result = 0.262 z-score
Sequence = GACGATATCAGACTGGCGACGTGCTAG; result = -0.186 z-score
Sequence = TTTCGTATCTTCATTGTCATGTGCTAG; result = 10.9 z-score
Sequence = ATATTGATGGCTCTCTGGACGTGCTAG; result = 0.0738 z-score
Sequence = CGAGACCTCGTCTCTATCAAAGTGCTA; result = -0.184 z-score
Sequence = GACGATATCACTTTCGAGACGTGCTAG; result = 5.03 z-score
Sequence = CTTTTTCCCTATTATATATATGTGCTA; result = 3.1 z-score
Sequence = GACGGTTTCGGCCTCGGGACGTGCTAG; result = 3.2 z-score
Sequence = TAAGGTATCGACTATCGGTTAGTGCTA; result = 0.167 z-score

For quick reference, copied from above (sample 1):
Sequence = CAAATTAC; result = 0.143
Sequence = CTATTGAC; result = 0.0662
Sequence = CAGTCCAA; result = -0.123
